# Measurements from different studies.
# Numbered parts are unrelated; each lists some results of a single study. Positions count from the first letter of the parent shown.

# Set 1
# Target: Sal-like protein 4, full length isoform A (SALL4, Homo sapiens, UniProt Q9UJQ4, residues 1-1053)
# Sequence of UniProt Q9UJQ4 (whole entry, looked up): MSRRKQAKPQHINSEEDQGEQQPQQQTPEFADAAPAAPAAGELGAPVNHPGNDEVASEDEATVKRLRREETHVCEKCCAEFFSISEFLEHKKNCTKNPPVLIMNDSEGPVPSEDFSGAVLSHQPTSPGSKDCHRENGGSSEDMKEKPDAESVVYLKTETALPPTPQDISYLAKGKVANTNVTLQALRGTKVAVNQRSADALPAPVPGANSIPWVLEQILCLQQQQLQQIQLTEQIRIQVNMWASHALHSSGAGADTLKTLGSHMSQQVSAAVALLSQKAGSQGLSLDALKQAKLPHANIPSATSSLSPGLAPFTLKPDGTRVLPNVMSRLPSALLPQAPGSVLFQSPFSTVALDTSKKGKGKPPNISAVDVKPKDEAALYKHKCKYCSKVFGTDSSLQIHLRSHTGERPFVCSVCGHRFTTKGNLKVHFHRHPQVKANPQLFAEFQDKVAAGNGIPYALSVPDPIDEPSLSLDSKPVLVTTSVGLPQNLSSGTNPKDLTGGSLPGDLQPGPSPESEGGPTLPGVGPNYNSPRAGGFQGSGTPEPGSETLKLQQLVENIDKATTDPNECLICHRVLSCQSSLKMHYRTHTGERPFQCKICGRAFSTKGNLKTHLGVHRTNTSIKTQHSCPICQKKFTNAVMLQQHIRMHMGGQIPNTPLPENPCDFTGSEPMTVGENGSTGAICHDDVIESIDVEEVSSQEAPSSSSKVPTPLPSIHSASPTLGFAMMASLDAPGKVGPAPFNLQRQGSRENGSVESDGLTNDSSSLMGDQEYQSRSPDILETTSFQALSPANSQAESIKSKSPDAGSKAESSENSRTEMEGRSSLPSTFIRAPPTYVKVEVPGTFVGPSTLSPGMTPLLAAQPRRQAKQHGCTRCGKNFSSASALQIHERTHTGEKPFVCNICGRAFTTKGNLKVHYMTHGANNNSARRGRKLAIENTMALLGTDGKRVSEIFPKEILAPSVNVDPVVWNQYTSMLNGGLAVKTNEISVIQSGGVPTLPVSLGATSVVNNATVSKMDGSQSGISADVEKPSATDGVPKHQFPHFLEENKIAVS
# Method: universal PBM
# Molecule type: double-stranded DNA, one strand shown
# Matrix: in vitro
# Tested at: 600 nM
# Setting: 8-mer, flanks averaged, mean of replicates
# Reading: higher = stronger binding
Sequence,E-score
AGTGGGGC,-0.397
TACATCAA,0.254
AATACGGA,0.125
AATCCGCC,-0.197
ATTTGTCA,0.211
AATCCTTA,0.263
CGACAGGA,-0.00558
AACCGCAG,-0.283
AGCAGGTG,-0.0351
GCTCTGGA,-0.0306
ATCGTAGA,0.12
GTTCTCAA,0.121
TATAGCGA,0.189
CACGGTCA,-0.0653
TAGTCCGA,-0.083
ATTGATCA,0.217
CCCGTGCG,-0.348
AGGATCGC,-0.182
GGGATGTA,0.0455
CCTTTAGC,-0.146

# Set 2
# Target: CCND1, cyclin fold, Cln2 fusion (human)
# Method: yeast growth competition, sequencing
# Matrix: yeast
# Setting: strong parent motif
# Relative to: not given
# Reading: higher = stronger binding
# Starting sequence: INSM1 docking peptide (human); PKAIRKLHFEDEV; partner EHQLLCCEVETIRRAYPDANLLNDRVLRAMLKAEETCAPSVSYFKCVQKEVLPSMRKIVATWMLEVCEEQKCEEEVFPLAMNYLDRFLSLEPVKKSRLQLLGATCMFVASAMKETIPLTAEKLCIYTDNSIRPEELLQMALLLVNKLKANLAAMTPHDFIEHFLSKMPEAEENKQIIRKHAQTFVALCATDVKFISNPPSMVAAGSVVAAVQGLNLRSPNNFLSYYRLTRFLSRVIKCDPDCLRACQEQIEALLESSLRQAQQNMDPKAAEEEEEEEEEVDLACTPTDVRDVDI
Substitution,normalised enrichment score
PKAIRKLHFDDEV [E10D],4.7
PKNIRKLHFEDEV [A3N],0.106
PKAIRKLHFHDEV [E10H],3.08
PKAIRKLHFEDIV [E12I],4.02
PKASRKLHFEDEV [I4S],3.42
PKAIRKLHFEGEV [D11G],3.45
PKLIRKLHFEDEV [A3L],0.338
PKAIRKLWFEDEV [H8W],4.18
PKAIRKLHFESEV [D11S],3.5
PKAIRKLHFLDEV [E10L],2.14
PKAIPKLHFEDEV [R5P],0.333

# Set 3
# Target: ABI1, truncated, D143A, DHFR fusion (Arabidopsis thaliana)
# Method: DHFR PCA, deep sequencing
# Matrix: yeast
# Setting: methotrexate growth selection, single substitutions
# With: (+)-ABA 4.8 µM
# Relative to: wild-type fitted maximum
# Reading: higher = stronger binding
# Starting sequence: PYL1, truncated, DHFR fusion (Arabidopsis thaliana); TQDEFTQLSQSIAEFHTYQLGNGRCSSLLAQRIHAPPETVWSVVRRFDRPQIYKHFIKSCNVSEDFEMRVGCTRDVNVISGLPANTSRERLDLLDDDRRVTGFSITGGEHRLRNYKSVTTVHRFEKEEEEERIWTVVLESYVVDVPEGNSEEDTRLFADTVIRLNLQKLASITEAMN
Substitution,relative binding score [%]
V161C,37.1
E139C,66.3
A175T,69.9
R32I,69
V76D,-5.4
R132E,97.4
I52D,72.3
R113A,67.1
L8M,55.1
E109N,76.9
P37I,46.9
N114F,-11.3

# Further values, each from its own experiment
Substance,target,test,test system,setting,scale,quantity,result
"PhoQ, residues 284 288 289 292 302 303 STVVAA","PhoP, residues 12 14 15 18 19 NQCAL (Escherichia coli, UniProt P23836)","Sort-seq, item: YFP reporter",E. coli,"PhoQ-PhoP variant library, with: 10 µM Mg2+","relative to: high Mg2+ state, higher = stronger signaling",fold induction,3.78

# A few entries again (set 1):
Sequence,E-score
AACCGCAG,-0.283
AGCAGGTG,-0.0351
GCTCTGGA,-0.0306
ATCGTAGA,0.12
GTTCTCAA,0.121
TATAGCGA,0.189
